Measurements gathered from unrelated publications.
Every numbered part comes from another study and shows a few of its results, in no order. Positions count from the first letter of the parent shown.

Study 1
Target: RNA binding protein fox-1 homolog 2, RRM domain, GST-SBP tag (RBFOX2, Homo sapiens, UniProt O43251-10, residues 100-194)
Method: RNA Bind-n-Seq
Form: RNA
Medium: in vitro
Tested at: 365 nM
Setting: natural RNA segment, single round, ends assumed
Baseline: no-protein control
Direction: higher = stronger binding
Quantity: RBNS enrichment (R)
Shared flanks, not repeated: GGGAGUUCUACAGUCCGACGAUC … UGGAAUUCUCGGGUGCCAA
Target sequence (chain): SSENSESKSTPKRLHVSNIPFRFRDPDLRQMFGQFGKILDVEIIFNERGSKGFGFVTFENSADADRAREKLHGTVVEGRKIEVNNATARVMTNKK
CCAUACCUUUAGGCUUGGUAAGGGAGAAAGCCCGAGCUGUACUGCAGUCUGAUUGCUGUGUUACAAGGACCCAGCUGAGCUGAUGUCAUUCGCACUGCCUCUGUUGCUUC: 0.339
UAGUGGUCAGCUCUGAGGGGGGACUGGUGACUCUGAACAGAUCGAUGUCAACAGCCAUGGUGAACCAGAUCUGGGCAGGGUUCCCCAAACUCUAUUCAACCAGAGUUUUA: 0.217
GCAGCUCACAUCCCACCCAGCUUCACAAGUGAGGAACCCAGGUGCAUCGGGAGACCCUCGGGGGCUUCUGUGGCCUCUGUGCCCGAUGACCUGCGUGGCUUCAGACAAGG: 0.213
AAAAUAGAUACCAUGGUUUGUGCAAUUAUGUAGUAAAAAAGGCAAAUCUUUUCACCUCUGGCUAUUCCUGAGACCCCAGGAAGUCAGGAAAAGCCUUUCAGCUCACCCAU: 0.518
UACAUCUGCACAUACAAGCGCUUGUGCUAACAGAGCCAGACUUGGACUCCCCUACCUAUUAGUCUGGCCCCCAUGUGCUUUGCUCCCCAUGCUCAGUGGUCACUAUCCCC: 0.76
AGUCCCUUGUCCAUGCUGCACUGGGGCAGGCCGGUUGUUUGUGGUUUGUCCUACCAGCCACAGCUCCAUAGACAGCAGCUGGCAGUAGAGCAAAAGUUGGGGAGAGGAUU: 1.64
UAAAGCAGCUAAACACUGAGCUUCCCUCGGGGUUAGGACAGUGGCUUCUUAGCCUCUUUGUUUAGGGGCCACUGGAGAAUUCCACUUAGGGAGACUGGAUAUAGUAGUGC: 0.328
AUUGUUAUUUCUGAGACAGAGUCUUGCUCUGUAGCUCAGGCUGGAGUGCAGUGGCUCAAUCUCAGCUCACCACAACCUCUGCCUCCUGGCUUCAAGCGAUUCUUCUGCCU: 0.174
UCAGCUGGUCAUUUACCAGGUGUGGACUUAAGUUGCUAGGCUUGCAGUAAGAAUUGCCAGCCACUCAUUGUGCGGGUCUGCGUGGAGCUUUAAUCAGAAAAAGCCUCCAC: 0.288
UGAGUUAUGUAAGAUUUAAAUAAAAGUUUGCUACCAAGAUGAUUGCCUUAUUGAAUAGGUCACUAUUAAAUUCCUUUAAAUGUUGAUAUCUGCCAUUUGUGGAAACAACG: 0.522
ACUCGGCUGGGCUGCUUGGGGAGACUCUUCCGUGCGUUCUUCCUCUGGAUAGAACCACCACCUCCUGGGCGUCACUGACAAGCUCCAUCUUAACCUCCAAAGCCACAGAA: 0.179
CUUCAGUUUUCUUUUCUACAAUAAAGUGUUCGUUAAAUUUGGUUAAAAACAAAACAACAAACUUGAUUCCUGGGCUGUGGCAAGUUUUCUUUGUCCUCAAAACUGGCAGA: 0.505

Study 2
Target: CCND3, cyclin fold, Cln2 fusion (human)
Method: yeast growth competition, sequencing
Medium: yeast
Setting: weak parent motif
Baseline: not given
Direction: higher = stronger binding
Quantity: normalised enrichment score
Starting sequence: PKN2 docking peptide (human); VSAVRKLDFSDTM
VSAERKLDFSDTM [V4E]: 0.305
VSHVRKLDFSDTM [A3H]: -0.143
VSAVRKLDSSDTM [F9S]: 0.198
VSAVRKLDFSCTM [D11C]: 0.579
VSAVRPLDFSDTM [K6P]: -0.478
VSAVRKLDFSFTM [D11F]: 0.0974
VSAVRKLDRSDTM [F9R]: -0.0236
VSAVRWLDFSDTM [K6W]: 0.579
VSAVCKLDFSDTM [R5C]: 0.398
VSAVRNLDFSDTM [K6N]: 0.246
VSAVRKLDFSDSM [T12S]: 1.16
VEAVRKLDFSDTM [S2E]: -0.332
VSAVRKLDFGDTM [S10G]: 1.27
VSAVRKQDFSDTM [L7Q]: 0.0622
VSAVRKLDFSDMM [T12M]: 0.802
VQAVRKLDFSDTM [S2Q]: 0.577
VSLVRKLDFSDTM [A3L]: -0.0122
VRAVRKLDFSDTM [S2R]: 0.798
VSAVRKLDMSDTM [F9M]: 0.239
VSASRKLDFSDTM [V4S]: 0.524
VSAVWKLDFSDTM [R5W]: 0.0242
VNAVRKLDFSDTM [S2N]: 0.519
VSAVRKHDFSDTM [L7H]: 0.294
VSAVHKLDFSDTM [R5H]: -0.169
VSAVRKLDFDDTM [S10D]: 1.5

Study 3
Target: ABI1, truncated, D143A, DHFR fusion (Arabidopsis thaliana)
Method: DHFR PCA, deep sequencing
Medium: yeast
Setting: methotrexate growth selection, single substitutions
With: (+)-ABA 1.4 µM
Baseline: wild-type fitted maximum
Direction: higher = stronger binding
Quantity: relative binding score
Starting sequence: PYL1, truncated, DHFR fusion (Arabidopsis thaliana); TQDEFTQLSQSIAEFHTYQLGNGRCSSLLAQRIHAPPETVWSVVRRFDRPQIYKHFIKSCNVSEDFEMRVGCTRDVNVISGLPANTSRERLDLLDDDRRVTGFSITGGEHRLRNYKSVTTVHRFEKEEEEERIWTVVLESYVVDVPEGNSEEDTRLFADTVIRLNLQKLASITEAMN
D3F: 20.7%
S11I: 51.9%
P50A: -7.63%
S63Y: 4.78%
N85R: 83.1%
W134D: 52.3%
H16R: 0.168%
R98C: 10.2%
R132A: 80.5%
A175W: 19.7%
G102N: -3.37%
E152F: 10.6%
S171P: 8.88%
V43L: 39%
L169T: -8.36%
R132S: 84.7%
E151F: 11.2%
E129I: 41.6%
T106V: 94.9%
G81C: 4.68%
E125N: 59.8%
R69T: 52.6%
L166N: -22.1%
S63G: 65.3%
G102Y: -2.29%

Study 4
Target: Interferon regulatory factor 5, full length, phosphomimetic (IRF5, Homo sapiens, UniProt Q13568-2, residues 1-514, S451D/S453D/S456D/S462D)
Method: protein-binding microarray
Form: double-stranded DNA, one strand shown
Medium: in vitro
Tested at: 940 nM top
Setting: 60-bp whole probe
With: salmon DNA 0.4 mg/ml
Baseline: random background probes
Direction: higher = stronger binding
Quantity: fitted relative affinity
Shared flanks, not repeated: GCCTAGCAC … GTCTTGATTCGCTTGACGCTGCTG
TTAGGTATCGGGTTTCGGGTAGTGCTA: 7.23 z-score
GGATTGCAACCCCTCAAAAAGTGCTAG: -0.176 z-score
GACGATCTCAGTGTCGAGACGTGCTAG: -0.234 z-score
TTAGGTCTCCTTCGCCTTTAGTGCTAG: 0.35 z-score
GAGGGACTGCTTTTCCTGACGTGCTAG: -0.215 z-score
TCATCTCTAACCTCTCTAACTGTGCTA: 1.53 z-score
TTGGGTCTCGGTTTCGGTTAGTGCTAG: 9.62 z-score
TTAGATCTCACTATCGATTAGTGCTAG: 1.39 z-score
TCATGTTTCTCAACCAGACTGTGCTAG: 0.788 z-score
TCATGAAGCGCTTCTCGAACTGTGCTA: -0.338 z-score
TTAGATCTCAGTCTCCATTAGTGCTAG: 0.704 z-score
GACGGTCTCCTAATCCTGACGTGCTAG: 0.378 z-score
GACGGTTTCGGGTATCGTGACGTGCTA: 9.14 z-score
GACGGACTGCTTATACTGACGTGCTAG: -0.134 z-score
GACGGTTTCGACACTGGGCACGTGCTA: 6.88 z-score
TTAGATATCGAGACTGGATTAGTGCTA: 0.907 z-score
ATTGTTTTCAGTTTCACTGCGTGCTAG: 4.24 z-score
TCAGCTTTCCTCGTGATACTGTGCTAG: 0.364 z-score
TTAGATCTCAGTATCGATTTGTGCTAG: 4.16 z-score
GACGGACTGGACACTGCGGACGTGCTA: -0.373 z-score
TTAGATTTCCTACTGCTTTAGTGCTAG: 0.237 z-score
GACGATATCGGGACTCGAGACGTGCTA: -0.0671 z-score
TTTGCTTTACTGATGGCCCTGTGCTAG: -0.232 z-score
GACGGACCGGACTATCGGGACGTGCTA: -0.522 z-score
TTAGGACTGGGTTTCAGTTAGTGCTAG: 1.83 z-score

Study 5
Target: Protein C-ets-1 (ETS1, Homo sapiens, UniProt P14921, residues 1-441, K379A, full length assumed)
Method: protein-binding microarray
Form: double-stranded DNA, one strand shown
Medium: in vitro
Tested at: not given
Setting: k-mer, scored over probes, only values ≥0.25
Direction: higher = stronger binding
Quantity: E-score
Residues (chain): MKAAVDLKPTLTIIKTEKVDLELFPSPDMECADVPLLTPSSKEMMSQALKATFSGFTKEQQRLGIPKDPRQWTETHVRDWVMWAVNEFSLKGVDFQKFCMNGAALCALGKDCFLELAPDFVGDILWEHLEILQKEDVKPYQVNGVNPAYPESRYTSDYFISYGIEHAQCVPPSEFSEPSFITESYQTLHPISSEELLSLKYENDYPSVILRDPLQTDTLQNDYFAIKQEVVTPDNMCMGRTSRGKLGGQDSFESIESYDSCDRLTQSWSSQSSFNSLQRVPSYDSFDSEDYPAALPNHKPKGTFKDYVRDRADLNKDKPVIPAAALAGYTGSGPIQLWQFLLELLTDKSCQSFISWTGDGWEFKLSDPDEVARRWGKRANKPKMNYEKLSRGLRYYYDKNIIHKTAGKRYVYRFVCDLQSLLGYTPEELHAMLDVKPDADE
CCACGACG: 0.26
GCCGGTCA: 0.28
GTAATGAC: 0.265
GTCGGACA: 0.26
CGGAACCG: 0.348
AGTATACG: 0.263
ACCCGCGC: 0.269
ATACACCG: 0.357
ACTACCAT: 0.319
ACTTGTAT: 0.251
ACAACAAC: 0.263
AAATACCG: 0.364
ATCAACAA: 0.265
ACGTGTTC: 0.251
CCCCGGAA: 0.391
CCCGCCAC: 0.269
ACCGACCA: 0.295

Some of these lines once more (study 4):
TCATCTCTAACCTCTCTAACTGTGCTA: 1.53 z-score
TTGGGTCTCGGTTTCGGTTAGTGCTAG: 9.62 z-score
TTAGATCTCACTATCGATTAGTGCTAG: 1.39 z-score
TCATGTTTCTCAACCAGACTGTGCTAG: 0.788 z-score
TCATGAAGCGCTTCTCGAACTGTGCTA: -0.338 z-score
TTAGATCTCAGTCTCCATTAGTGCTAG: 0.704 z-score
GACGGTCTCCTAATCCTGACGTGCTAG: 0.378 z-score
GACGGTTTCGGGTATCGTGACGTGCTA: 9.14 z-score
GACGGACTGCTTATACTGACGTGCTAG: -0.134 z-score
GACGGTTTCGACACTGGGCACGTGCTA: 6.88 z-score
TTAGATATCGAGACTGGATTAGTGCTA: 0.907 z-score
ATTGTTTTCAGTTTCACTGCGTGCTAG: 4.24 z-score
TCAGCTTTCCTCGTGATACTGTGCTAG: 0.364 z-score
TTAGATCTCAGTATCGATTTGTGCTAG: 4.16 z-score
GACGGACTGGACACTGCGGACGTGCTA: -0.373 z-score
TTAGATTTCCTACTGCTTTAGTGCTAG: 0.237 z-score
GACGATATCGGGACTCGAGACGTGCTA: -0.0671 z-score
